Measurements of several laboratories.
A part holds a random share of what one study measured.
Chain of UniProt P10721 (whole entry, unmodified, looked up): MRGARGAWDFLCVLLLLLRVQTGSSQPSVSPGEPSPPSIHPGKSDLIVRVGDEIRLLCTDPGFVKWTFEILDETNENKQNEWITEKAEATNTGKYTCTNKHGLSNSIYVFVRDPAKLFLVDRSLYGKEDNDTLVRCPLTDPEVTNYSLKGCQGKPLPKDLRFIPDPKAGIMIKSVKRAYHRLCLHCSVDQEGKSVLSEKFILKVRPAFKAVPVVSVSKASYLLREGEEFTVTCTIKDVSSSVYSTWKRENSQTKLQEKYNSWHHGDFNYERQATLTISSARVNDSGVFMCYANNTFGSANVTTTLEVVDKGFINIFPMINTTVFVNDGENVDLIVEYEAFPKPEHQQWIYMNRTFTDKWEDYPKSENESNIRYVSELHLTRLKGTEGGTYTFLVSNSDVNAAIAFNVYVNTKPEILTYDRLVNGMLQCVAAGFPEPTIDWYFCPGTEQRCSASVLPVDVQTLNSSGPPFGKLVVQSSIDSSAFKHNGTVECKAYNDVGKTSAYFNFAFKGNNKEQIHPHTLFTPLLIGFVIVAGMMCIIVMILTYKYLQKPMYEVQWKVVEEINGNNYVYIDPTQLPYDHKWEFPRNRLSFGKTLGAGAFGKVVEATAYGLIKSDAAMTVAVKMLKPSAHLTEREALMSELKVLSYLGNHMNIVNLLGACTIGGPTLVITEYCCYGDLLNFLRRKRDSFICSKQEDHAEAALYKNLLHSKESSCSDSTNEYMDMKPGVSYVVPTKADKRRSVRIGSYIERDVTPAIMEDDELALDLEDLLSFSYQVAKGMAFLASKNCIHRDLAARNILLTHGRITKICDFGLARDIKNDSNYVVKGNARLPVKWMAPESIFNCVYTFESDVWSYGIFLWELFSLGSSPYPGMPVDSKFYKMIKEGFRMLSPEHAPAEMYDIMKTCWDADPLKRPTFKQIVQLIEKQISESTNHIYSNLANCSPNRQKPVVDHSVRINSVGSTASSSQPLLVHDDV
Chain of UniProt O14965 (whole entry, looked up): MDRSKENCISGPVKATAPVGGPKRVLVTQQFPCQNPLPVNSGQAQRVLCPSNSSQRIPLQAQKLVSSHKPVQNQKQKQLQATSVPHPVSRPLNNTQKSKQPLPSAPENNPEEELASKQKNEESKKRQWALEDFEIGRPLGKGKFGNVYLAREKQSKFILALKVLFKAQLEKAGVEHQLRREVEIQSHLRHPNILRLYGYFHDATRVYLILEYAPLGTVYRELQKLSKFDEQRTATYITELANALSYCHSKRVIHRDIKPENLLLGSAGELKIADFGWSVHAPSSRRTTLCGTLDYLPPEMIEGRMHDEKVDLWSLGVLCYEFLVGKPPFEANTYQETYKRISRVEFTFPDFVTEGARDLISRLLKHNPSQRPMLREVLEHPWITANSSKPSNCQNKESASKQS
Chain of UniProt Q96BR1 (whole entry, looked up): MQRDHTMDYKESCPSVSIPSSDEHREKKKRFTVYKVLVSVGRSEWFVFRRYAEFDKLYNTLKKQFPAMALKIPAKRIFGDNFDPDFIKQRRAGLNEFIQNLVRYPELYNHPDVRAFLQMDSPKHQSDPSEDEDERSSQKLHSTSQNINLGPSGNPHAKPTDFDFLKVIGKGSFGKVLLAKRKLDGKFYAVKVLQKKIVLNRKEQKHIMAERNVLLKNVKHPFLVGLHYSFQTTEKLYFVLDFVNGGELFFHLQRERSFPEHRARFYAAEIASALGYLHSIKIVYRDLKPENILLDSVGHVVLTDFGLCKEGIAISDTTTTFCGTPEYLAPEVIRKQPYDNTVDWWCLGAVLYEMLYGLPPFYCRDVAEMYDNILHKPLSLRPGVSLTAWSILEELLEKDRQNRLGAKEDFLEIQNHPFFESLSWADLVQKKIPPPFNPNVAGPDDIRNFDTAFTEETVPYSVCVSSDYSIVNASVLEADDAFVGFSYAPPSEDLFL
Chain of UniProt P07333 (whole entry, looked up): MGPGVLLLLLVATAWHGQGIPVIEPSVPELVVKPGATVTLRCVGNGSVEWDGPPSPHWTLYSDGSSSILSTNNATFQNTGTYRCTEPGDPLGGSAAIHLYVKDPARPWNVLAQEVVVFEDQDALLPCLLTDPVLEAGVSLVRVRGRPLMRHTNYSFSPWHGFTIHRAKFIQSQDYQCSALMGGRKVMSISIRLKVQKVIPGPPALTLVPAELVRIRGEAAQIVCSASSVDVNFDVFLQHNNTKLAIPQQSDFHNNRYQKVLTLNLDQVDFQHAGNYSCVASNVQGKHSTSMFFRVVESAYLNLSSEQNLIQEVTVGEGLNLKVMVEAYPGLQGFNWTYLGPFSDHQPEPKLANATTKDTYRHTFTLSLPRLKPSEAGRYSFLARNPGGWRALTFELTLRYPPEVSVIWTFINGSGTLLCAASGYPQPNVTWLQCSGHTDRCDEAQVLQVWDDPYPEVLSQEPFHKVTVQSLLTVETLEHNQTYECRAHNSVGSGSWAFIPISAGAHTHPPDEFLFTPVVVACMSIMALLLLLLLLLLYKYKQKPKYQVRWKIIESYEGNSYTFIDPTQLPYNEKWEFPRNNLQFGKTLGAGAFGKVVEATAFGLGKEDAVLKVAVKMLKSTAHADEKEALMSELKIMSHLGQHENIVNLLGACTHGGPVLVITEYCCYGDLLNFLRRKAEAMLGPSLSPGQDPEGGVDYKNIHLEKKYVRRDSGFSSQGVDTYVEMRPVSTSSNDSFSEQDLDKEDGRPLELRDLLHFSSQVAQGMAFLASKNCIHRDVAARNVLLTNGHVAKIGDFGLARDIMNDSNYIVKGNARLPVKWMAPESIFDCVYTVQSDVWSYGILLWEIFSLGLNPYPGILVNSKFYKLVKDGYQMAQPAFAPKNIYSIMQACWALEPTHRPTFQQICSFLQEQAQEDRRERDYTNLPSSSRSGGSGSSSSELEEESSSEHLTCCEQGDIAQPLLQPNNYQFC
Chain of UniProt Q16566 (whole entry, looked up): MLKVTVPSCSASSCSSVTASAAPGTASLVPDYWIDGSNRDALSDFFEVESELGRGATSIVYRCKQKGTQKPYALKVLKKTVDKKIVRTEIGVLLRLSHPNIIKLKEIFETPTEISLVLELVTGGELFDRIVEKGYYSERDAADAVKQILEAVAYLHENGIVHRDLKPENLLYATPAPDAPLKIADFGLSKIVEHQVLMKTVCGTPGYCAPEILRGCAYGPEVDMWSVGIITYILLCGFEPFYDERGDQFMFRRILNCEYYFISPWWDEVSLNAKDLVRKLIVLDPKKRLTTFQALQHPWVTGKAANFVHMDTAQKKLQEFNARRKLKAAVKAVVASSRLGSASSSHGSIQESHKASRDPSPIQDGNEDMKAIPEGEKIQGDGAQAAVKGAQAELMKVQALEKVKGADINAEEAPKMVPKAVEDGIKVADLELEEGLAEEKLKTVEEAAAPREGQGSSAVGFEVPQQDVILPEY
Chain of UniProt P0C1S8 (whole entry, looked up): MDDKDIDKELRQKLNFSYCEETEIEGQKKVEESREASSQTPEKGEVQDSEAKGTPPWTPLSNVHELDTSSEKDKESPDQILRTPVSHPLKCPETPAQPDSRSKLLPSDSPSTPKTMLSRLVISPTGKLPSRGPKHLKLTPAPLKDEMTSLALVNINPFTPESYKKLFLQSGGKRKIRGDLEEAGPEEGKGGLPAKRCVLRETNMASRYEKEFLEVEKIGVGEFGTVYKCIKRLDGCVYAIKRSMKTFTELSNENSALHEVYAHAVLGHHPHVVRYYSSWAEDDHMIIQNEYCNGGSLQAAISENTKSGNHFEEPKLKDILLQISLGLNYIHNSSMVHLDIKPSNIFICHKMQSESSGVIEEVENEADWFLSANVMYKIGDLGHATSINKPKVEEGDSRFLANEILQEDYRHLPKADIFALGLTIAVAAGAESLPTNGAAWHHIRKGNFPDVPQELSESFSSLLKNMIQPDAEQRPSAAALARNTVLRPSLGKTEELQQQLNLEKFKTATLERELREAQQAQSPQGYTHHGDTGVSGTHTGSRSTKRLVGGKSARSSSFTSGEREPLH
Chain of UniProt Q96GD4 (whole entry, looked up): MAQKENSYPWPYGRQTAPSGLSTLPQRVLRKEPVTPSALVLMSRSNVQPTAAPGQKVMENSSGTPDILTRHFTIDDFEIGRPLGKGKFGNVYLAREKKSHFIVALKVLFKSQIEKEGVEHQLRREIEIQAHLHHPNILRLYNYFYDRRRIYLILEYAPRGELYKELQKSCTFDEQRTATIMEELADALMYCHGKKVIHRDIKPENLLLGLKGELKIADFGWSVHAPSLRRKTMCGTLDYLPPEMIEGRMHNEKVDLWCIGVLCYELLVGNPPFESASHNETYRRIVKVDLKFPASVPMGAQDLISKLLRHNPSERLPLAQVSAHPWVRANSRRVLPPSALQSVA
Chain of UniProt Q9UEE5 (whole entry, looked up): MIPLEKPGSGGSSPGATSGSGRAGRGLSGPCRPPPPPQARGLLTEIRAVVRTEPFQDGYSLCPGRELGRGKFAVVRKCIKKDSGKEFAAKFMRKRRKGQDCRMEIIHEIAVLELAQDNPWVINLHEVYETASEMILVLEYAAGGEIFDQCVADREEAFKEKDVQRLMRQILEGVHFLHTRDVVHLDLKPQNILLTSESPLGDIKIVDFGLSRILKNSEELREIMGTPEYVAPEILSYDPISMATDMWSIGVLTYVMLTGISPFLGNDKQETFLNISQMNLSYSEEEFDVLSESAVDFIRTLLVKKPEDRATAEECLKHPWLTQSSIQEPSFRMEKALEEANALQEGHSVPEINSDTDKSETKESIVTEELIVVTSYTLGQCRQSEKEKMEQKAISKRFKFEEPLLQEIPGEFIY

Study 1 — observed: binding; tested at: 1 µM
Structure (SMILES): CN1CCN(C(=O)c2ccc(NC(=O)Nc3ccc(N(C)c4ccnc(Nc5ccc(CS(C)(=O)=O)cc5)n4)cc3)cc2)CC1
target | technique | remaining binding [%]
STK17A (Homo sapiens, UniProt Q9UEE5) | – | 100
SGK3 (Homo sapiens, UniProt Q96BR1) | – | 79
RPS6KB1 (Homo sapiens, UniProt P23443) | – | 37
CDK15 (Homo sapiens, UniProt Q96Q40) | competition with immobilised ligand | 100
KIT (Homo sapiens, UniProt P10721, V559D/V654A) | – | 9.1
EPHB3 (Homo sapiens, UniProt P54753) | competition with immobilised ligand | 100
PHKG2 (Homo sapiens, UniProt P15735) | – | 100
INSRR (Homo sapiens, UniProt P14616) | – | 100
ANKK1 (Homo sapiens, UniProt Q8NFD2) | – | 28
PRKCQ (Homo sapiens, UniProt Q04759) | – | 51
KIT (Homo sapiens, UniProt P10721, L576P) | – | 0

Study 2 — tested at: 1 µM
SMILES: CN(C)C(=O)Cn1cc(-c2nc([C@@](C)(c3ccc(-c4cnc(N)nc4)cc3)C3CC3)no2)cn1
target | observed | technique | remaining binding [%]
Macrophage colony-stimulating factor 1 receptor, autoinhibited (CSF1R, Homo sapiens, UniProt P07333) | cell-free assay | competition with immobilised ligand | 96
CAMK4 (Homo sapiens, UniProt Q16566) | cell-free assay | competition with immobilised ligand | 83
ABL2 (Homo sapiens, UniProt P42684) | cell-free assay | competition with immobilised ligand | 100
PKN2 (Homo sapiens, UniProt Q16513) | cell-free assay | competition with immobilised ligand | 100
CDK2 (Homo sapiens, UniProt P24941) | cell-free assay | competition with immobilised ligand | 96
WEE2 (Homo sapiens, UniProt P0C1S8) | cell-free assay | competition with immobilised ligand | 100
GAK (Homo sapiens, UniProt O14976) | cell-free assay | competition with immobilised ligand | 100
ROCK2 (Homo sapiens, UniProt O75116) | cell-free assay | competition with immobilised ligand | 100
EPHA1 (Homo sapiens, UniProt P21709) | cell-free assay | competition with immobilised ligand | 97
Aurora kinase B (AURKB, Homo sapiens, UniProt Q96GD4) | cell-free assay | competition with immobilised ligand | 96
IKBKE (Homo sapiens, UniProt Q14164) | cell-free assay | competition with immobilised ligand | 86
CSNK1E (Homo sapiens, UniProt P49674) | cell-free assay | competition with immobilised ligand | 97
FLT3 (Homo sapiens, UniProt P36888, D835V) | cell-free assay | competition with immobilised ligand | 72
NEK4 (Homo sapiens, UniProt P51957) | cell-free assay | competition with immobilised ligand | 88
KIT (Homo sapiens, UniProt P10721, D816H) | cell-free assay | competition with immobilised ligand | 100
Aurora kinase A (AURKA, Homo sapiens, UniProt O14965) | cell-free assay | competition with immobilised ligand | 73
SIK1 (Homo sapiens, UniProt P57059) | – | competition binding | 52
EGFR (Homo sapiens, UniProt P00533, A750P/del747-749) | cell-free assay | competition with immobilised ligand | 100

Study 3 — organism: Sarcocystis neurona; observed: parasite growth; tested at: 10 µM; time: 96 h; baseline: untreated
Structure (SMILES) | log2 fold change
CC(=O)N1CCN(c2ccc(OCC3COC(Cn4ccnc4)(c4ccc(Cl)cc4Cl)O3)cc2)CC1 (centres unmarked) | -0.13
NS(=O)(=O)c1cc(C(=O)O)c(NCc2ccco2)cc1Cl | 0.3
CO[C@H]1/C=C/O[C@@]2(C)Oc3c(C)c(O)c4c(O)c(c5c(nc6cc(C)ccn65)c4c3C2=O)NC(=O)/C(C)=C\C=C\[C@H](C)[C@H](O)[C@@H](C)[C@@H](O)[C@@H](C)[C@H](OC(C)=O)[C@@H]1C | 0.29
CO[C@H]1O[C@@H]2O[C@@]3(C)CC[C@H]4[C@H](C)CC[C@@H]([C@H]1C)[C@@]24OO3 | -1.42
OC(CCN1CCCC1)(c1ccccc1)C1CCCCC1 (centres unmarked) | -0.12
C[C@]12C=CC(=O)C=C1CC[C@@H]1[C@@H]2[C@@H](O)C[C@@]2(C)[C@H]1CC[C@]2(O)C(=O)CO | 0.3
Cc1nc2ccccn2c(=O)c1CCN1CCC(C(=O)c2ccc(F)cc2)CC1 | -0.46
C[n+]1ccccc1/C=N/O | 0.37
NC(=O)N1c2ccccc2C=Cc2ccccc21 | 0.34
COc1ccc(CC2c3cc(OC)c(OC)cc3CC[N+]2(C)CCC(=O)OCCCCCOC(=O)CC[N+]2(C)CCc3cc(OC)c(OC)cc3C2Cc2ccc(OC)c(OC)c2)cc1OC (centres unmarked) | -0.1
CC(C)(C(=O)O)c1ccc(C(O)CCCN2CCC(C(O)(c3ccccc3)c3ccccc3)CC2)cc1 (centres unmarked) | 0.36
COc1ccccc1OCCNCC(O)COc1cccc2[nH]c3ccccc3c12 (centres unmarked) | -0.59
CCCCC(=O)N(Cc1ccc(-c2ccccc2-c2nnn[nH]2)cc1)[C@H](C(=O)O)C(C)C | 0.23

Study 4 — sample: hydrocarbon/water
Structure (SMILES) | logD
CCC[C@@H]1NC(=O)[C@H](C)N(C)C(=O)[C@H](CC(C)C)NC(=O)Cn2cc(nn2)CN(C)C(=O)[C@H](CC(C)C)NC(=O)[C@H](C)N(C)C(=O)[C@H](CC2CCCCC2)NC(=O)CN(CC)C(=O)[C@H]2CCCN2C1=O | 0.109
CCC[C@@H]1NC(=O)CSC[C@@H](C(=O)OCC)N(C)C(=O)[C@H](CC(C)C)NC(=O)[C@@H](C)N(C)C(=O)[C@@H](CC(C)C)NC(=O)[C@H](C)N(C)C(=O)[C@@H]2CCCN2C(=O)[C@@H](CC(C)C)NC(=O)CN(CCC)C1=O | 1.32
CCN1CC(=O)N[C@@H](CC(C)C)C(=O)N2CCC[C@@H]2C(=O)N(C)[C@@H](CC(C)C)C(=O)N[C@@H](C)C(=O)N(CC2CCOCC2)CC(=O)N[C@@H](C)C(=O)N2CCC[C@@H]2C(=O)N(C)[C@@H](CC(C)C)C(=O)N[C@@H](C)C1=O | -0.599
CCC[C@H]1C(=O)N[C@@H](CC2CCCCC2)C(=O)N(C)[C@@H](C)C(=O)N[C@@H](CC(C)C)C(=O)N(C)Cc2cn(nn2)CC(=O)N[C@@H](CC(C)C)C(=O)N(C)[C@@H](C)C(=O)N[C@@H](CC2CCCCC2)C(=O)N2CCC[C@@H]2C(=O)N1C | 2.36
CCCN1CC(=O)N[C@@H](CC(C)C)C(=O)N2CCC[C@@H]2C(=O)N(C)[C@@H](C)C(=O)N[C@@H](CC)C(=O)N(C)[C@@H](C)C(=O)N[C@@H](CC(C)C)C(=O)N(C)Cc2cn(nn2)CC(=O)N[C@@H](CC(C)C)C1=O | -1.36
CCCN1CC(=O)N[C@@H](CC2CCCCC2)C(=O)N(C)[C@@H](C)C(=O)N[C@@H](CC(C)C)C(=O)N(C)Cc2cn(nn2)CC(=O)N[C@@H](CC(C)C)C(=O)N(C)[C@@H](C)C(=O)N[C@@H](CC(C)C)C(=O)N2CCC[C@@H]2C1=O | 1.15
CCOC(=O)[C@@H]1CSCC(=O)N[C@@H](CC)C(=O)N(C)[C@@H](C)C(=O)N[C@@H](CC(C)C)C(=O)N2CCC[C@@H]2C(=O)N(CC)CC(=O)N[C@@H](CC(C)C)C(=O)N(C)[C@H](C)C(=O)N[C@@H](CC(C)C)C(=O)N1C | 0.928
CCC[C@@H]1NC(=O)[C@H](C)N(C)C(=O)[C@H](CC(C)C)NC(=O)Cn2cc(nn2)CN(C)C(=O)[C@H](CC(C)C)NC(=O)[C@H](C)N(C)C(=O)[C@H](CC)NC(=O)CN(CC)C(=O)[C@H]2CCCN2C1=O | -2.45
